Results pooled from the literature.
Compare with care: the assays were run in different laboratories.
Target: Mitogen-activated protein kinase kinase kinase 15 (MAP3K15, Homo sapiens, UniProt Q6ZN16)

SMILES	observed	action	method	concentration	relative to	measurement	result
CCN1CCN(Cc2ccc(C(=O)Nc3ccc(C)c(NCc4cnc5[nH]ccc5c4OC)c3)cc2C(F)(F)F)CC1	binding	–	competition with immobilised ligand	1 µM	–	remaining binding	11%
COc1cc(Nc2nccc(-c3cnn4nc(OC)ccc34)n2)cc(C(F)(F)F)c1	binding	–	competition with immobilised ligand	1 µM	–	remaining binding	100%
Cc1ccc(-c2c(/C=C(\C#N)C(=O)NC(C)C)n(CCCO)c3ncnc(N)c23)cc1	cell-free assay	–	competition with immobilised ligand	1 µM	–	remaining binding	100%
C=CC(=O)N1CCCC(n2c(=O)c3ncccc3n(Cc3ccc(Oc4ccccc4)cc3)c2=O)C1 (stereo not drawn)	cell-free assay	–	competition with immobilised ligand	1 µM	–	remaining binding	58%
Cc1cnc2nc1Nc1cccc(c1)COC/C=C/COCc1cc(ccc1OCCN1CCOCC1)N2	binding	–	–	0.1 µM	–	remaining binding	62%
Nc1ncc2c(n1)-c1c([nH]c3ccc(C4=CCOCC4)cc13)CCC2	binding	–	competition with immobilised ligand	1 µM	–	remaining binding	100%
COc1cc(Nc2nc(C)cc(-c3cnn4nc(OC)ccc34)n2)cc(C(F)(F)F)c1	–	inhibitor	–	1 µM	control	remaining activity	100%
C=CC(=O)N1CCc2ccc(-n3c(=O)ccc4cnc5ccc(-c6cnn(C)c6)cc5c43)cc21	–	–	KINOMEscan	1 µM	DMSO control	remaining binding	59%
CNC1C[S+]2CC[S+]3CC[S+](C1)[Ru-4]321([N]=C=S)[n]2c3ccc(OC)cc3c3c4c(c5cc(F)c[n+]1c5c32)C(=O)NC4=O (stereo not drawn)	–	–	KinomeScan	0.1 µM	untreated	remaining binding	98%
CNC(=O)C1CCN(c2cc(C)c(F)cc2NC(=O)c2ccc(-c3cc(O)ccc3C)c(C)c2)CC1	binding	–	competition with immobilised ligand	1 µM	–	remaining binding	97%
COc1c(Cl)cccc1Nc1c(-c2ccncc2C#C[C@@]2(C)CCCN2C(=O)/C=C/CN(C)C)[nH]c2c1C(=O)NCC2	binding	–	competition with immobilised ligand	3 µM	–	remaining binding	73%
CC(C)=CC1OC(C)(C)C2C=C3C(=O)C(Cl)=CC(O)C3C3C(O)C4OC4C(=O)C132 (stereo not drawn)	cell-free assay	–	competition with immobilised ligand	10 µM	–	remaining binding	72%

A few entries again:
SMILES	observed	action	method	concentration	relative to	measurement	result
Cc1ccc(-c2c(/C=C(\C#N)C(=O)NC(C)C)n(CCCO)c3ncnc(N)c23)cc1	cell-free assay	–	competition with immobilised ligand	1 µM	–	remaining binding	100%
